Measured values from different studies.
Every numbered part comes from another study and shows a few of its results, in no order. Positions count from the first letter of the parent shown.
Chain of UniProt P35372 (whole entry, looked up): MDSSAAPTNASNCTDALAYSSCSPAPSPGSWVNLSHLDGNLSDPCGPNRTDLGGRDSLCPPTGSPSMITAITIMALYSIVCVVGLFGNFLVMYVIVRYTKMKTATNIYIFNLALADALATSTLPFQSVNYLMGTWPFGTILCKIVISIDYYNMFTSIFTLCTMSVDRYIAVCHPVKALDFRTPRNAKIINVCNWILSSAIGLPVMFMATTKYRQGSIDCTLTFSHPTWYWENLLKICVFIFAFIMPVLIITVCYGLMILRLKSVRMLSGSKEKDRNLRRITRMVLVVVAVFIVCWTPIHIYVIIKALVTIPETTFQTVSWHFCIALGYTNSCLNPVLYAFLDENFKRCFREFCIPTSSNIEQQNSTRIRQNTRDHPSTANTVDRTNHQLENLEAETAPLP
Chain of UniProt Q09013 (whole entry, looked up): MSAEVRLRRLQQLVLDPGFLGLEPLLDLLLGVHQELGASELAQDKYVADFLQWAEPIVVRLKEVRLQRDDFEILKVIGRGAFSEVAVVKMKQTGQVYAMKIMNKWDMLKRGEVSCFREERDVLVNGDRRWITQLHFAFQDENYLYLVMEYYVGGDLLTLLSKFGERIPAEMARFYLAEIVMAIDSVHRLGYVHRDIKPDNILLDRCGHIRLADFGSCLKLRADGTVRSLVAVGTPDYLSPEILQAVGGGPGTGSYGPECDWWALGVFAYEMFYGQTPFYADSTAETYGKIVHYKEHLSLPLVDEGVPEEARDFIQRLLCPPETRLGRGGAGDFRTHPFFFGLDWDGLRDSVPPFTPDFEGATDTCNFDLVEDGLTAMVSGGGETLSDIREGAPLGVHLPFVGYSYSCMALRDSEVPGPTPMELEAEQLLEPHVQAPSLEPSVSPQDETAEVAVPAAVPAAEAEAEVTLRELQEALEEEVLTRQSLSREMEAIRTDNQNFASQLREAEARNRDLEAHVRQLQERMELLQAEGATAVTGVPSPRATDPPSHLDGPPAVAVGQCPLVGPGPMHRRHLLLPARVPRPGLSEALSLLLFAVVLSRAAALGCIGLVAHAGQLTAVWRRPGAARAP
Chain of UniProt P41146 (whole entry, looked up): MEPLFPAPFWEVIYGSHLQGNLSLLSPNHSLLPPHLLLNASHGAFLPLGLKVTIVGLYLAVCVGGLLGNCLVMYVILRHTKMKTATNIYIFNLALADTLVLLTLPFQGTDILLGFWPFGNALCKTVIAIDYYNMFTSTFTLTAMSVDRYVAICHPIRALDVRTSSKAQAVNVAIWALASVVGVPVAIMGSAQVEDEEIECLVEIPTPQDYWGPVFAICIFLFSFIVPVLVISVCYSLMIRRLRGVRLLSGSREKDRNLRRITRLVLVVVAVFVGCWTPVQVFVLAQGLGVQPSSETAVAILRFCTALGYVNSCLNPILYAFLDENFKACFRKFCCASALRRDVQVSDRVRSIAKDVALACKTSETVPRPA
Chain of UniProt Q13315 (whole entry, looked up): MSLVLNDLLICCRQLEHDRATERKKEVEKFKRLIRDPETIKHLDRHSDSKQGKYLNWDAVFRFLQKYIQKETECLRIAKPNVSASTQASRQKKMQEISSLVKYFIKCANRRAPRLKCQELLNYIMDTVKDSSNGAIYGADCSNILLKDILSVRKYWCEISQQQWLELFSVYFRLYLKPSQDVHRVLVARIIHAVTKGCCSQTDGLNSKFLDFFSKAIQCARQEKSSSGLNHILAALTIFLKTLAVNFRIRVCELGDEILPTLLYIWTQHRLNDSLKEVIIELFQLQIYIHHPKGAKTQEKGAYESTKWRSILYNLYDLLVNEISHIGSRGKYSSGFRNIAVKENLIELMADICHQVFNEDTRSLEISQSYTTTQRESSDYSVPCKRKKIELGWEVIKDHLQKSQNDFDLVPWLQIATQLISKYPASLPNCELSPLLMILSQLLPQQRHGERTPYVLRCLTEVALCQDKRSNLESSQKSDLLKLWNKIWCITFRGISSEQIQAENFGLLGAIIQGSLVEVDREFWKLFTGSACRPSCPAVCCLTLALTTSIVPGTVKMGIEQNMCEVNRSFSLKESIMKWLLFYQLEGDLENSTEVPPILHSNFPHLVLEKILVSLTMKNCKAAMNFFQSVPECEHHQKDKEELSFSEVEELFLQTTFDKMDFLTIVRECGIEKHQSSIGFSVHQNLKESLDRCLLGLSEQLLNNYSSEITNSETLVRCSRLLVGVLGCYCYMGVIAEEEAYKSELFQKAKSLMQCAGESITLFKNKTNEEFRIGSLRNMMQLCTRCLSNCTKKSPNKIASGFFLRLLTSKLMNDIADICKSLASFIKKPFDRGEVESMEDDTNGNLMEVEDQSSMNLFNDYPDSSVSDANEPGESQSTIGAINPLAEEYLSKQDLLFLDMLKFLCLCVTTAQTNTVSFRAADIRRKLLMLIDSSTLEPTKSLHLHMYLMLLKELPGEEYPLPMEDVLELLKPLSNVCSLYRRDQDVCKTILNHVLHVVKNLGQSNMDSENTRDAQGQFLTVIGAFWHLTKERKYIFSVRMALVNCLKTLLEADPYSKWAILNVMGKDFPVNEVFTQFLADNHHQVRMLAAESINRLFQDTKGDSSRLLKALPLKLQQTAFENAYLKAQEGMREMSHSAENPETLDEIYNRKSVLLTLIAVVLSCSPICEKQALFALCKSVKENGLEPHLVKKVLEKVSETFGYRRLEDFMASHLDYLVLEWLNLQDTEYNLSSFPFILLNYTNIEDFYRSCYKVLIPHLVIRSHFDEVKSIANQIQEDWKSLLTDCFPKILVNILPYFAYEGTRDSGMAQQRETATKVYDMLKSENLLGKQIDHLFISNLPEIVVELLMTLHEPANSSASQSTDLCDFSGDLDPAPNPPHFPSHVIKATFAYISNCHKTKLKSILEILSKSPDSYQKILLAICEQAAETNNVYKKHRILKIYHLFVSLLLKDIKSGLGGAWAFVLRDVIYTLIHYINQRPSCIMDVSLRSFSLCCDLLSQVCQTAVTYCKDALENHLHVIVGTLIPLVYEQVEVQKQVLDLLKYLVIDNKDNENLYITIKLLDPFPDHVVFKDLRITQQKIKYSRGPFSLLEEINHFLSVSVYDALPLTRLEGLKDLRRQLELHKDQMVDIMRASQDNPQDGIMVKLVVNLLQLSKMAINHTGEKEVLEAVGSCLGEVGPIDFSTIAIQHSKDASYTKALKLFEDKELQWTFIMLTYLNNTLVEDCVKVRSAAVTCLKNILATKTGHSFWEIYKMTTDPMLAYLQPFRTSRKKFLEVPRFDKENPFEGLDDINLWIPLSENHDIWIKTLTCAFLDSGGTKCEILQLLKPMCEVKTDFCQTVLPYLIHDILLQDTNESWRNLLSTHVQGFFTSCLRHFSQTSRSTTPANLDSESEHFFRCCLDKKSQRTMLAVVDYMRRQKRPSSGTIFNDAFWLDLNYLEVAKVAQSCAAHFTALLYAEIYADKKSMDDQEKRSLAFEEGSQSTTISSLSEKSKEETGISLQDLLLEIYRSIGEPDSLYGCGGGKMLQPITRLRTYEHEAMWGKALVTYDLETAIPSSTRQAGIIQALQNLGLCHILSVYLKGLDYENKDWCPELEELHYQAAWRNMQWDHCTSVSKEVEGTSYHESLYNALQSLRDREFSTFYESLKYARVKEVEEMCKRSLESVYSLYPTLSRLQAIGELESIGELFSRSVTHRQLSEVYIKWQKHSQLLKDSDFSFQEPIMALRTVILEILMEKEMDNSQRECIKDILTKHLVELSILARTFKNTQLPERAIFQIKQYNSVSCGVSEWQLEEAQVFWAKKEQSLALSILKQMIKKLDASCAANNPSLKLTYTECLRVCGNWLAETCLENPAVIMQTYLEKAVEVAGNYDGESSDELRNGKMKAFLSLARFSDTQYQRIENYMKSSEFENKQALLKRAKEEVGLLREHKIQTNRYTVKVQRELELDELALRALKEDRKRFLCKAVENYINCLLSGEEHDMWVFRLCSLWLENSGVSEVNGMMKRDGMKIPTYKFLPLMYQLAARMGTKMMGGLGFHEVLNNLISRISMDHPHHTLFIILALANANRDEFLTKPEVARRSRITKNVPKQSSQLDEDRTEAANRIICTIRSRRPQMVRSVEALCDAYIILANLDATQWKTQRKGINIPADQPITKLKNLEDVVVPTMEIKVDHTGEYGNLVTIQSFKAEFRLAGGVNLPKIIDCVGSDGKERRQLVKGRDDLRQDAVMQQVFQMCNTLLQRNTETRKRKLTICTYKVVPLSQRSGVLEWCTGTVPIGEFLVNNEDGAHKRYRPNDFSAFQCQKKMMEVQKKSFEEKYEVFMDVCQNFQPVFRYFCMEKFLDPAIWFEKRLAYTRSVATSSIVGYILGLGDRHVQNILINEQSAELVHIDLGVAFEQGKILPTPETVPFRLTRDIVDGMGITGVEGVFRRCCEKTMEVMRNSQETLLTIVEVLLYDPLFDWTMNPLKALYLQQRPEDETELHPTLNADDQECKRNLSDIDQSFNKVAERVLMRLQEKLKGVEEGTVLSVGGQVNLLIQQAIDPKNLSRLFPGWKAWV
Chain of UniProt P46734 (whole entry, looked up): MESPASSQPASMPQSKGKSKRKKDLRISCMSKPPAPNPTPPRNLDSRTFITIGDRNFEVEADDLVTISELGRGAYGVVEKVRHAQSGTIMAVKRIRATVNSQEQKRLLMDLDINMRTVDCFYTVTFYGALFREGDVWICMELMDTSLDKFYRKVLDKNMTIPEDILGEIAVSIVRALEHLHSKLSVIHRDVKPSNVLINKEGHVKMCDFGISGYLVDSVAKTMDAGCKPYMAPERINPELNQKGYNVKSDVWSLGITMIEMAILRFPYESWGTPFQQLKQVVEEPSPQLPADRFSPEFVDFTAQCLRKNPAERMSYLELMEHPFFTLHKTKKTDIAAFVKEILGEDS

Block 1
Target: vanadate, free oxyanion
Method: microfluidic competitive inhibition
Medium: in vitro, cell-free expressed
Concentration: not given
Setting: derived from inhibition constants, unchanged parent 676 nM
Reading: lower = stronger binding
Starting sequence: PafA, mature enzyme, eGFP fusion (Elizabethkingia meningoseptica, UniProt Q9KJX5); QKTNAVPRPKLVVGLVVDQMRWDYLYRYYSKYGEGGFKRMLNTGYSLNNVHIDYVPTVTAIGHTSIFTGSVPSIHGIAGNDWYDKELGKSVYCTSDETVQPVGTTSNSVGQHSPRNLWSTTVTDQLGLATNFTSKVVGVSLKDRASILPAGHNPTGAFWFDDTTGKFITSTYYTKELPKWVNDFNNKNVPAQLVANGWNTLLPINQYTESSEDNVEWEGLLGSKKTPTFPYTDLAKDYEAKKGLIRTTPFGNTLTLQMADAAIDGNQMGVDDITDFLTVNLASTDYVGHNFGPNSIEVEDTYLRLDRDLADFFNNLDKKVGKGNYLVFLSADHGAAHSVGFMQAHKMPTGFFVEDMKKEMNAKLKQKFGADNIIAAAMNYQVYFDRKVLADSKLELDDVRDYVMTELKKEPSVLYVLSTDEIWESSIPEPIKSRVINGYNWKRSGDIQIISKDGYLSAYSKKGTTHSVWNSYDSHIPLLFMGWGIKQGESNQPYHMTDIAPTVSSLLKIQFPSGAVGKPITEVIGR
Change | oxyanion analog dissociation constant
P348V | 597 nM
L193G | 522 nM
S211G | 629 nM
T200G | 813 nM
L478V | 1.15 µM
S433G | 657 nM
G340V | 734 nM
A5V | 593 nM

Block 2
SMILES: CNC(=O)c1ccc(-c2cnn3ccc(C(=O)N(C)c4ccc(Cl)c(C(=O)O)c4)cc23)cc1
target | effect on | action | IC50 [µM]
Serine-protein kinase ATM (ATM, Homo sapiens, UniProt Q13315) | enzyme activity | inhibitor | 3.78
Hepatocyte growth factor receptor (MET, Homo sapiens, UniProt P08581) | enzyme activity | inhibitor | > 30
Myotonin-protein kinase (DMPK, Homo sapiens, UniProt Q09013) | enzyme activity | inhibitor | > 30
Muscarinic acetylcholine receptor M2 (CHRM2, Homo sapiens, UniProt P08172) | cell-free assay |  | > 30
D(3) dopamine receptor (DRD3, Homo sapiens, UniProt P35462) | cell-free assay |  | > 30
Mu-type opioid receptor (OPRM1, Homo sapiens, UniProt P35372) | cell-free assay |  | > 30
Dual specificity mitogen-activated protein kinase kinase 3 (MAP2K3, Homo sapiens, UniProt P46734) | enzyme activity | inhibitor | > 30
Receptor tyrosine-protein kinase erbB-2 (ERBB2, Homo sapiens, UniProt P04626) | enzyme activity | inhibitor | > 30
Serine/threonine-protein kinase Nek11 (NEK11, Homo sapiens, UniProt Q8NG66) | enzyme activity | inhibitor | > 30

Further values, each from its own experiment
OGT: OGT, full length, His-tagged (human)
P1: peptide; VAYPNSYMPKYQIST; partner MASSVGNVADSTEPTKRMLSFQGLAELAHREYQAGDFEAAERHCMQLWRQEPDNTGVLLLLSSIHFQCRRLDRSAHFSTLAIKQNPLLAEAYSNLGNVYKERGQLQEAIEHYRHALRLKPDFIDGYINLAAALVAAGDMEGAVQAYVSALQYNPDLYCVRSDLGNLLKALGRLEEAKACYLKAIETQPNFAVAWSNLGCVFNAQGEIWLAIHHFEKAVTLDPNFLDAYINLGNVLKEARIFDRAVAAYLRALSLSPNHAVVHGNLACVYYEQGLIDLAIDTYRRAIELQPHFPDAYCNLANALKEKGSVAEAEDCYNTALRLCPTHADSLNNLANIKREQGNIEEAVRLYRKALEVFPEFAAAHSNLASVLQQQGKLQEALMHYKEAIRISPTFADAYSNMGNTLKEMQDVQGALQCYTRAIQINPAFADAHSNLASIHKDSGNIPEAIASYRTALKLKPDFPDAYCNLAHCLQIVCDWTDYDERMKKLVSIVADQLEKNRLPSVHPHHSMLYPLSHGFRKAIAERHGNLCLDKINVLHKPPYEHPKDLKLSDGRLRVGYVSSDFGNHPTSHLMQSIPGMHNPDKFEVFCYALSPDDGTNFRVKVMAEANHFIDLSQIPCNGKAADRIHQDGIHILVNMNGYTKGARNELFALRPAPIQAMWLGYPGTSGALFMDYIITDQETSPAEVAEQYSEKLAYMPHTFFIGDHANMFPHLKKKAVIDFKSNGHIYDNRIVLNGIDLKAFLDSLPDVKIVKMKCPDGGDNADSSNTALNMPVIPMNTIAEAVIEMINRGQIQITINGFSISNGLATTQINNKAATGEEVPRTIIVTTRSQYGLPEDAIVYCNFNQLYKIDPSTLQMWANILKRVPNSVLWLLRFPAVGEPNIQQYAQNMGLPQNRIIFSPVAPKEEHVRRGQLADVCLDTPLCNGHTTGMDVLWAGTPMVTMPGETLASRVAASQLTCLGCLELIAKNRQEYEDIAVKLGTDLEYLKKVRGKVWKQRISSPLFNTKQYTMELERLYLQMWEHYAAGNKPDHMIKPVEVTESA
Substance | target or system | test | system | conditions | how to read | measurement | result
Cc1c(N2CCNCC2)nc2ccc(Br)cc2c1C(=O)NC[C@H](CCC(=O)O)c1ccccc1Cl | Alpha-1D adrenergic receptor (ADRA1D, Homo sapiens, UniProt P25100) | ligand displacement |  | 10 µM |  | inhibition | 16%
P1 Y11N | OGT | phage display, sequencing | in vitro | 1 µg OGT, single substitutions, 15-mer displayed peptide, unchanged parent 6.14 | relative to: input library, higher = stronger binding | fold enrichment | 0.563 fold
CNC(=O)c1cc(C(=O)NC2CC2)cn(Cc2ccccc2)c1=O | Histamine H4 receptor (HRH4, Homo sapiens, UniProt Q9H3N8) | binding, radioligand binding |  | 10 µM |  | inhibition | 16.1%
O=C1CCC(N2Cc3c(ccc4c3OCC43CCN(Cc4ccccc4)CC3)C2=O)C(=O)N1 (stereo not drawn) |  |  | ICR mouse, male, plasma | intravenous, 1.0 mg/kg |  | Vss | 3.97 L/kg
O=C1NC(c2ccccn2)Sc2ccccc21 (stereo not drawn) | Cyclin-dependent kinase 2 homolog (CRK2, Plasmodium falciparum, UniProt P61075) | cell-free assay, competition with immobilised ligand |  | 1 µM |  | remaining binding | 100%
P1 P4T | OGT | phage display, sequencing | in vitro | 1 µg OGT, single substitutions, 15-mer displayed peptide, unchanged parent 6.14 | relative to: input library, higher = stronger binding | fold enrichment | 8 fold
CC(=O)Nc1c(C(C)=O)c(=O)n(C)c2nc(-c3ccc(Cl)cc3Cl)c(-c3ccc(Cl)cc3)cc12 | Nociceptin receptor (OPRL1, Homo sapiens, UniProt P41146) | binding, radioligand binding |  |  |  | Ki | > 10 µM

Repeated from above (further values, each from its own experiment):
Substance | target or system | test | system | conditions | how to read | measurement | result
Cc1c(N2CCNCC2)nc2ccc(Br)cc2c1C(=O)NC[C@H](CCC(=O)O)c1ccccc1Cl | Alpha-1D adrenergic receptor (ADRA1D, Homo sapiens, UniProt P25100) | ligand displacement |  | 10 µM |  | inhibition | 16%
P1 Y11N | OGT | phage display, sequencing | in vitro | 1 µg OGT, single substitutions, 15-mer displayed peptide, unchanged parent 6.14 | relative to: input library, higher = stronger binding | fold enrichment | 0.563 fold
